Published values collected from several papers.
Protocols differ between the studies behind these lines. Several values in a cell are separate wells, animals, samples, runs or records. ± marks the error that the study gave.

[O-][S+]1CCc2nc(N3CCC(c4ncc(Cl)cn4)CC3)nc(NC3(CO)CCC3)c21 (centres unmarked) — adverse event incidence (item: nervous system disorders; healthy male humans; 6 mg twice daily): 25%
COc1ccc2nc3cc(Cl)ccc3c(Nc3cc(CN4CCCC4)c(O)c(CN4CCCC4)c3)c2n1 — neutrophil count (mouse, blood; intraperitoneal, 14 mg/kg): 1.47 10⁹/L
O=c1nc(NO)ccn1[C@@H]1O[C@H](CO)[C@@H](O)[C@H]1O — long-term stability (rat fetus dialysate; 1000 ng/mL, more than 4 weeks, -20 °C, high concentration, together with: molnupiravir 250 ng/mL): 99.7 ± 2.29%
COc1ccccc1-c1ccc(CN2CCC(NC(=O)Cc3ccc(F)cc3)C2)cc1 (centres unmarked) — maximum response (Vero-E6; CellTiter-Glo ATP; 72 h, first round 5-point; relative to: DMSO 0%, hyamine -100%, more negative, more toxic): -0.987%
C1=Cc2nc1cc1ccc([n-]1)c(C1CC1)c1nc(cc3ccc([n-]3)c2C2CC2)C=C1.CC(=O)[O-].[Mn+3] — plasma concentration (LC-MS/MS; Sprague-Dawley rat, plasma; oral gavage, dose not given, 30 min, individual rat Rat2): 85 ng/mL
C[C@H]1COCCN1c1nc(NCc2cccnc2C(F)(F)F)c2cccnc2n1 — plasma concentration (anaesthetized rat, plasma; intravenous, 10 mg/kg, 5 min): 42000 ng/mL
COc1ncccc1-c1cnn2ccc(N3CCN(C(=O)OC(C)C)CC3)nc12 — drug concentration (mouse, SNL model, plasma; oral, 10 mg/kg, 30 min): 3.6 µM
NCCCC[C@@H]1NC(=O)[C@@H](Cc2c[nH]c3ccccc23)NC(=O)[C@H](c2ccccc2)NC(=O)[C@@H]2C[C@@H](OC(=O)NCCN)CN2C(=O)[C@H](Cc2ccccc2)NC(=O)[C@H](Cc2ccc(OCc3ccccc3)cc2)NC1=O — QTcI change from baseline (healthy volunteers; subcutaneous, 600 µg twice daily, day 5, 2.00 h): 8.3 ms
COc1ccc(-c2cn3c(n2)sc2cc(C(=O)NCCCN4CCCCCC4)ccc23)cc1 — maximum response (Vero-E6; CellTiter-Glo ATP; 72 h, retest 8-point duplicates; relative to: DMSO 0%, hyamine -100%, more negative, more toxic): -26.3%
CCc1ccc(CC/C=C/c2ccc3c(c2)C(=O)CC3)cc1 — CK serum activity (Sprague-Dawley rat, female; oral, 30 mg/kg/day, 14 days): 493 U/L
C=CC(=O)N1CC[C@H](n2nc(C#Cc3cc(OC)cc(OC)c3)c3c(N)ncnc32)C1 — adverse drug reaction incidence (patients with advanced solid tumours; oral, dose not given, Dysgeusia, any grade, QD, together with: lanthanum carbonate hydrate): 8.3%
CN(C(=O)n1cnc(-c2ccc[n+]([O-])c2)c1)C1CCCCC1 — concentration (Wistar rat, hippocampus; oral, 10 mg/kg/day, 48 h, repeated 5 days): 10 ± 1.3 ng/g
CCN1CCN(Cc2ccc(Nc3ncc(F)c(-c4cc(F)c5nc6n(c5c4)[C@H](C)CCC6)n3)nc2)CC1 — Thrombocytopenia incidence, grade ≥3 (advanced solid tumour patients; dose not given, Phase Ia monotherapy): 4.2%
CN1CC[C@@H](c2c(O)cc(O)c3c(=O)cc(-c4ccc(C(F)(F)F)cc4Cl)oc23)[C@@H]1CO — patients with adverse event (item: Epistaxis; relapsed B-cell malignancies or AML; oral, 50 mg, grade 3-4, continuous dosing): 0%
CNC(=O)c1c(C)oc2cc(Oc3ccnc4cc(OCCN5CCOCC5)ccc34)ccc12 — time to steady state (patients, plasma): ≤ 15 days
C[C@H]1C[C@@H](N2C(=N)N[C@](C)(c3cccc(NC(=O)c4cccc(C#N)c4)c3Cl)CC2=O)CCO1 — triglycerides change (rat; 250 mg/kg, every other day): -28%
CC(C)(c1ccc(O)cc1)c1ccc(O)cc1 — final permeate concentration (ultrafiltration; cow milk whey; 200 nM nominal in whole milk): 9.02 nM
C=CCNc1c(O)cc2c(O)c1C[C@@H](C)C[C@H](OC)[C@H](O)[C@@H](C)/C=C(\C)[C@H](OC(N)=O)[C@@H](OC)/C=C\C=C(/C)C(=O)N2 — patients with TEAE (item: Constipation; unresectable or metastatic GIST/STS; intravenous, dose not given, all doses): 24%
COC[C@@H](CC(C)C)NC(=O)c1ccc(C)c(C)c1 — micronucleated PCE per 1000 PCE (Hsd:ICR (CD-1) mouse, female, bone marrow; oral, 1352 mg/kg, 48 h): 0.5
COc1cc2c(Oc3ccc4[nH]c(C)cc4c3F)ccnc2cc1OCC1(N)CC1 — grade 1 or 2 Anorexia (paediatric recurrent refractory sarcoma; 10 mg): 0%
O=C(Nc1ccccc1)C1CCN(C(=O)Oc2cccnc2)CC1 — adverse event Malaise (healthy women; oral, 20 mg, 7 days): 0%
O=S(=O)(Nc1ccccc1)c1ccc(NC(=S)Nc2ccccc2)cc1 — blood cell fraction (item: RDW; male mouse, blood; oral, 80 mg/kg daily, 14 days): 16.6%
C=CC(=O)Nc1cc(Nc2nccc(Nc3cc(Cl)c(F)cc3C(C)(C)O)n2)c(OC)cc1N1CC[C@@H](N(C)C)C1 — patients with decreased appetite (human patients; oral, 300 mg, treatment-emergent adverse events): 33.3%
CO[C@H]1C[C@@H]2CC[C@@H](C)[C@@](O)(O2)C(=O)C(=O)N2CCCC[C@H]2C(=O)O[C@H]([C@H](C)C[C@@H]2CC[C@@H](OC(=O)NCCOCCOCCOCCOCCOCCOCCOCCOCCC(=O)N3CCc4cc(Cn5nc(-c6ccc7oc(N)nc7c6)c6c(N)ncnc65)ccc4C3)[C@H](OC)C2)C[C@@H](O)[C@H](C)/C=C(\C)[C@@H](O)[C@@H](OC)C(=O)[C@H](C)C[C@H](C)/C=C/C=C/C=C/1C — TRAE incidence (phase 1 dose escalation, item: decreased appetite; advanced solid tumour patients; intravenous, 10 mg weekly, grade ≥3): 0%
Cc1c(COC(=O)[C@@H]2[C@H](/C=C(\Cl)C(F)(F)F)C2(C)C)cccc1-c1ccccc1 (racemic) — enzyme contribution to clearance (item: CYP3A5; human, age 1 year, recombinant human CYP3A5; 0.1 µM): 2.03%
N=C(N)NCCC[C@@H](NC(=O)[C@@H](N)Cc1ccccc1)C(=O)N[C@@H](Cc1ccccc1)C(=O)N[C@@H](CCCCN)C(N)=O — median fraction excreted in urine (LC-MS; human; 25 mg, 23.83 h): 1.6%
CCN1[C@@H](C(=O)NC23CCC(C(=O)O)(CC2)CC3)[C@H](c2cccc(Cl)c2F)[C@]2(C(=O)Nc3cc(Cl)ccc32)C12CCCCC2 — Tinnitus incidence (patients with advanced solid tumours; oral, 150 mg): 0%
O=C(c1ccc(F)c(F)c1Nc1ccc(I)cc1F)N1CC(O)([C@@H]2CCCCN2)C1 — related AE dose modification (patients aged 6 to sample A years; oral, dose not given): 19%
Cn1cncc1-c1c(F)cncc1NC(=O)c1c(N)nn2cc(F)cnc12 — patients grade ≥3 Neutrophil count decrease (human patients; oral, dose not given, all doses): 7%
C=CC[N+]1([C@H]2C[C@H]3[C@@H]4CC[C@H]5C[C@H](O)[C@@H](N6CCOCC6)C[C@]5(C)[C@H]4CC[C@]3(C)[C@H]2OC(C)=O)CCCC1 — terminal half-life (Sprague Dawley rat, plasma; intravenous, 0.2 mg/kg, together with: vehicle IV): 19.5 min
CC(=O)c1c(C)c2cnc(Nc3ccc(C4CCN(CCS(C)(=O)=O)CC4)cn3)nc2n(C2CCCC2)c1=O — Cmax (human patients, plasma; oral, 100 mg twice daily, day 21 multiple doses, together with: fulvestrant): 260 ng/mL
CCS(=O)(=O)Nc1ccc(Oc2ccc(F)cc2F)c(-c2cn(C)c(=O)c3[nH]ccc23)c1 — treatment-emergent adverse events (febrile neutropenia leading to discontinuation; human, relapsed/refractory AML; oral, dose not given): 0%
CN1CCN(S(=O)(=O)c2cc([N+](=O)[O-])ccc2N(CCOS(C)(=O)=O)CCOS(C)(=O)=O)CC1 — sodium (naive NOD/SCID mice, pooled blood; intraperitoneal, 12.5 mg/kg, week 4): 155 mmol/L
COC(=O)C(C(C)C)N(Cc1ccc(-c2ccccc2-c2nn[nH]n2)cc1)N=O (centres unmarked) — precipitation concentration (cell culture medium): 100 to 1000 µM
CCCCN1CCC(COC(=O)c2ccc(N)c(O[11CH3])c2)CC1 — degradation (rhesus monkey plasma; 30 min): 20%
CC(C)C[C@H](NC(=O)[C@H](CCCCN)NC(=O)OCC1c2ccccc2-c2ccccc21)C(=O)N[C@H](C(=O)N[C@@H](Cc1ccccc1)C(=O)N[C@@H](Cc1ccccc1)C(=O)N[C@@H](CCCCN)C(=O)NCC(=O)N[C@@H](Cc1ccccc1)C(=O)N[C@@H](C)C(=O)N[C@@H](Cc1c[nH]c2ccccc12)C(=O)N[C@@H](CC(N)=O)C(=O)N[C@H](C(=O)N[C@H]1CSSC[C@@H](C(=O)N[C@@H](Cc2c[nH]cn2)C(=O)N[C@@H](CCCNC(=N)N)C(=O)N[C@@H](CCCNC(=N)N)C(=O)N[C@@H](C)C(=O)N[C@@H](CC(N)=O)C(N)=O)NC(=O)[C@H](C(C)C)NC(=O)[C@H](CCCNC(=N)N)NC(=O)[C@H](C(C)C)NC(=O)CNC(=O)[C@H](CC(N)=O)NC(=O)[C@H](CCCNC(=N)N)NC(=O)[C@H](Cc2ccc(O)cc2)NC(=O)[C@H](C(C)C)NC1=O)C(C)C)C(C)C — peptide remaining (HPLC; trypsin buffer; 0.50 h, 37 °C, together with: trypsin 1 % w/v): 77.6% and 73.2% and 76.1%
C=CC(=O)Nc1cc(Nc2ncc(C(=O)OC(C)C)c(-c3cn(C)c4ccccc34)n2)c(OC)cc1N(C)CCN(C)C — fatal heart failure (pooled safety population; 160 mg once daily, one case): 0.4%
O=C1Nc2cc3[nH]nc(-c4ccncc4)c3cc2CN1Cc1ccccc1 — patients with TEAE (item: Photopsia; patients with advanced solid tumours; intravenous, dose not given): 15%
C[C@@H](NC(=O)N1C(=O)[C@H](Cc2ccnc(N)c2)[C@H]1C(=O)O)C1CCCCC1 — incidence of urine leukocyte esterase positive (healthy adult Chinese volunteers; continuous intravenous infusion, 1.0 mg/kg/h, 5-day infusion, CTCAE 5.0 grading): 12.5%
CN(C)CCc1c[nH]c2ccc(N=Nc3ccccc3)cc12 — trans isomer at photostationary state (light irradiation; solution; together with: light 530 nm): 87%
C[C@]1(CO)Cc2ncn(-c3ccc(C#N)c(Cl)c3)c2C(=O)O1 — drug-related ALT increase incidence (human; 40 mg, Japanese multiple ascending dose): 2.8%

A few entries again:
COc1ccc(-c2cn3c(n2)sc2cc(C(=O)NCCCN4CCCCCC4)ccc23)cc1 — maximum response (Vero-E6; CellTiter-Glo ATP; 72 h, retest 8-point duplicates; relative to: DMSO 0%, hyamine -100%, more negative, more toxic): -26.3%
CCc1ccc(CC/C=C/c2ccc3c(c2)C(=O)CC3)cc1 — CK serum activity (Sprague-Dawley rat, female; oral, 30 mg/kg/day, 14 days): 493 U/L
C=CC(=O)N1CC[C@H](n2nc(C#Cc3cc(OC)cc(OC)c3)c3c(N)ncnc32)C1 — adverse drug reaction incidence (patients with advanced solid tumours; oral, dose not given, Dysgeusia, any grade, QD, together with: lanthanum carbonate hydrate): 8.3%
CN(C(=O)n1cnc(-c2ccc[n+]([O-])c2)c1)C1CCCCC1 — concentration (Wistar rat, hippocampus; oral, 10 mg/kg/day, 48 h, repeated 5 days): 10 ± 1.3 ng/g
